Experimental data of several laboratories.
Every numbered part comes from another study and shows a few of its results, in no order. Substitutions count along the parent as printed.

Block 1
Target: RING finger protein unkempt homolog, zinc fingers 1-6, GST-SBP tag (UNK, Homo sapiens, UniProt Q9C0B0, residues 30-357)
Method: RNA Bind-n-Seq
Form: RNA
Matrix: in vitro
Tested at: not given
Notes: RNA with constant flanks, human and mouse sites, ends assumed
Reference: input RNA pool
Direction: higher = stronger binding
Residues (chain): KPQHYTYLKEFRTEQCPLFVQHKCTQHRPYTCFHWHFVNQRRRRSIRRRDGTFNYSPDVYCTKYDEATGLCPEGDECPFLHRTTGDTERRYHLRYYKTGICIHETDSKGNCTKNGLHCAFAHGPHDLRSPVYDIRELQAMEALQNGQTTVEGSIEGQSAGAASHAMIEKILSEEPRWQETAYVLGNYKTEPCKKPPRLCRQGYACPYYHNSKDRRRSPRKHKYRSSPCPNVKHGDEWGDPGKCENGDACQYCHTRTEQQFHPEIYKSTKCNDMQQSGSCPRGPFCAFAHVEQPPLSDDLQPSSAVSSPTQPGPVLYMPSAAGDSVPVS
| Sequence | bound/input enrichment |
| --- | --- |
| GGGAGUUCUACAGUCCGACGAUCCUUCUACCGGGCGCCCCACGGGCCGAAGCCGCUCCAGUGUGCUGCUCUGCUCGUUACAACUUAGCAAUUUUGGCCUUUUUUGGUUUCUUCAUUGUGUAUGCAUUACGUGUGAAUCUGAGUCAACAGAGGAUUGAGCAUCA | 1.83 ratio |
| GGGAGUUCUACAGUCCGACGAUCCCUCCUACUACAACUGCUGAAAUUGCAACUGCCUCAGCUUCUGCCUCCACUACUACAACUGUUACUGCUGUCACUGCUGAAGUGGAUCUCUUUGGAGAUGCCUUUGCAGCUUCUCCUGGGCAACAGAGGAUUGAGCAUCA | 0.221 ratio |
| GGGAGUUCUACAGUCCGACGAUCGCUUAUAAAAUCAAAUAUCCAGAGAACUUCUUUCUCUUAAGAGGAAACCAUGAGUGUGCUAGCAUCAAUCGCAUUUAUGGAUUCUAUGAUGAAUGCAAACGAAGAUUUAAUAUUAAAUUGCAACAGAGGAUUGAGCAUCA | 0.284 ratio |
| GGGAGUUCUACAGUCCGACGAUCGUGUGUAACUCUUGGGUACUUGAGCAGAUGGAAUAUUCCAGAGGUGGGAGGUGGGAGGGGAGGGGAGAAGUCCCAAACAAAGUGUUCUUGCUCUGACCCAUAUUAAUCUUGUAUGCUUGGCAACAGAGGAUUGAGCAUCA | 0.575 ratio |
| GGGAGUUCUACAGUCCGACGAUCGCAGAUGUGAUGAGAGCUUCUUGACCAGUAAACAAACUAGCCCAGGUCUGAGAGAGACGUGCUAAAGGAGAGUCUACGUCUGGGAACUCUAUUUAUUUUCCUGUUUCUCCGGUGUGAAGACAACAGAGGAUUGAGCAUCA | 0.295 ratio |
| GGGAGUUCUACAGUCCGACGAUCAGGGUAUGAUAUAUAUGGUAUGCAUACCAUGUAUACACAUUACCUGAGGUCAGAGUCAAUGUUGGAAACACAUACACACUUCAGUCUGUAAAUAUUCUUCCUCACUGAAACCUGUGCUUCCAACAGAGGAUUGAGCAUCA | 0.0398 ratio |
| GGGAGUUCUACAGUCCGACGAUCUUUGGCAUCACCCAGCGACCAGCGUACAUUAACAUGGUACCUAGCCUGUCGCAGUUCACUAGCAUUUACACACCUUUGGCCAACAUUUCUUCUGAGUAUCCAAUGCAAAGAUCCAUGCCACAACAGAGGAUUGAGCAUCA | 1.76 ratio |
| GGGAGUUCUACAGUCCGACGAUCGGACACUGUGUACACAUGCGGGGAUUACCUUACAGAGCUACUGAGAAUGACAUUUAUAAUUUUUUUUCACCGCUCAACCCUGUGAGAGUACACAUUGAAAUUGGUCCUGAUGGCAGAGUACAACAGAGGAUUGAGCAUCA | 0.828 ratio |
| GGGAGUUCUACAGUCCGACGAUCCAGCCUAUGGCCCAGGCCGCCUUGGGUAUUUCUGCUCAAGGUAACCACAUCCCUCUUUAAAAAUUCCGCCGAAAAAGAGAAGACGCUUUACCCGACUCUUUGGGCCGUUAUCUCACGUUGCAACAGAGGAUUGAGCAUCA | 0.294 ratio |
| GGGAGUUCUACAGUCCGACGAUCAAAGAAUAUACUGAUGUAUACCCUGAAAUCAUUGAACGAGCAGGCUAUUCCUUGGAGAAGGUAUUUGGAAUCCAAUUGAAAGAAAUUGACAAGAAUGACCACUUGUAUAUUCUUCUCAGUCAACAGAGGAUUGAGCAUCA | 0.11 ratio |
| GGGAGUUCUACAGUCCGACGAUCUGUUCCACUUUACUUUCCUUCCCGGGAAGUUUGUUUGGCUUUCUUCCAUUGUUGUUUUUGUAGCUUUUACUUCAGAAGUCUGUAUUUCCAUAAGCCAGAGGUUGUAAAGCCACUGAUGUUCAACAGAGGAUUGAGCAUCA | 0.428 ratio |

Block 2
Target: CCNE1, cyclin fold, Cln2 fusion (human)
Method: yeast growth competition, sequencing
Matrix: yeast
Notes: weak parent motif
Reference: not given
Direction: higher = stronger binding
Parent: E2F8 docking peptide (human); FVPQRKLEVSTED
| Variant | normalised enrichment score |
| --- | --- |
| R5K V9F | 0.36 |
| D13A | -0.576 |
| V9F | 0.533 |
| V9A | -0.462 |
| V2A | -0.0825 |
| Q4A | -0.836 |
| L7A | 0.693 |
| R5A | -0.213 |

Block 3
Target: ABI1, truncated, D143A, DHFR fusion (Arabidopsis thaliana)
Method: DHFR PCA, deep sequencing
Matrix: yeast
Notes: methotrexate growth selection, single substitutions
With: (+)-ABA 0.11 µM
Reference: wild-type fitted maximum
Direction: higher = stronger binding
Parent: PYL1, truncated, DHFR fusion (Arabidopsis thaliana); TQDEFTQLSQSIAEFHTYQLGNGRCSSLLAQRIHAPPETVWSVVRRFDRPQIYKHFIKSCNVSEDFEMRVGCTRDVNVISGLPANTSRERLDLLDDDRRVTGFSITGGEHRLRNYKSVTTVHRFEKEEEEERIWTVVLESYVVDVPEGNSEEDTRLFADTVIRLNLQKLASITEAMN; partner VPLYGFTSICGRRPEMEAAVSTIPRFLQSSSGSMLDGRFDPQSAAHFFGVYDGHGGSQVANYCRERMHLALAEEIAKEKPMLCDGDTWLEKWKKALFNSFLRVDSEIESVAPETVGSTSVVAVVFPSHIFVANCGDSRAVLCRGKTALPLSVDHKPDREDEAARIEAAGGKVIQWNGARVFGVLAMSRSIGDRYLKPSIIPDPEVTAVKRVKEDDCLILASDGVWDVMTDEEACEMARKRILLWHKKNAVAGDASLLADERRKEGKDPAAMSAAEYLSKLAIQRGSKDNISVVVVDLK
| Variant | relative binding score [%] |
| --- | --- |
| I12F | 0.591 |
| G21R | 24.8 |
| L112S | -5.97 |
| I33W | -1.42 |
| D92N | 5.13 |
| E152R | 1.84 |
| G148P | 5.95 |
| E130A | 34.1 |
| F56G | 2.1 |
| E4F | 17.4 |
| R132G | 69 |
| S117A | 4.02 |

Mixed results
| Substance | target | test | test system | conditions | scale | measurement | value |
| --- | --- | --- | --- | --- | --- | --- | --- |
| PhoQ, residues 284 288 289 292 302 303 AQGLTV | PhoP, residues 12 14 15 18 19 LHHSG (Escherichia coli, UniProt P23836) | Sort-seq, refers to: YFP reporter | E. coli | PhoQ-PhoP variant library, with: 10 µM Mg2+ | reference: high Mg2+ state, higher = stronger signaling | fold induction | 5.91 |

Some of these lines once more (block 1):
| Sequence | bound/input enrichment |
| --- | --- |
| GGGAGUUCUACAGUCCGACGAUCCCUCCUACUACAACUGCUGAAAUUGCAACUGCCUCAGCUUCUGCCUCCACUACUACAACUGUUACUGCUGUCACUGCUGAAGUGGAUCUCUUUGGAGAUGCCUUUGCAGCUUCUCCUGGGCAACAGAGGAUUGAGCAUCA | 0.221 ratio |
| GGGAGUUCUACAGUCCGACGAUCGCAGAUGUGAUGAGAGCUUCUUGACCAGUAAACAAACUAGCCCAGGUCUGAGAGAGACGUGCUAAAGGAGAGUCUACGUCUGGGAACUCUAUUUAUUUUCCUGUUUCUCCGGUGUGAAGACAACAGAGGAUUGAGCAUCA | 0.295 ratio |
| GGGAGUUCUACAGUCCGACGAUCGUGUGUAACUCUUGGGUACUUGAGCAGAUGGAAUAUUCCAGAGGUGGGAGGUGGGAGGGGAGGGGAGAAGUCCCAAACAAAGUGUUCUUGCUCUGACCCAUAUUAAUCUUGUAUGCUUGGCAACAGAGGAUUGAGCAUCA | 0.575 ratio |
| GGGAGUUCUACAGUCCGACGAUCCAGCCUAUGGCCCAGGCCGCCUUGGGUAUUUCUGCUCAAGGUAACCACAUCCCUCUUUAAAAAUUCCGCCGAAAAAGAGAAGACGCUUUACCCGACUCUUUGGGCCGUUAUCUCACGUUGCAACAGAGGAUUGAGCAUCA | 0.294 ratio |
| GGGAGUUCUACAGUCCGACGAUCCUUCUACCGGGCGCCCCACGGGCCGAAGCCGCUCCAGUGUGCUGCUCUGCUCGUUACAACUUAGCAAUUUUGGCCUUUUUUGGUUUCUUCAUUGUGUAUGCAUUACGUGUGAAUCUGAGUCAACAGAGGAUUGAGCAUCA | 1.83 ratio |
